# Experimental data collected from several papers.
# Protocols differ between the studies behind these lines. ± gives the spread as reported.
# UniProt P48729, sequence (whole entry, looked up): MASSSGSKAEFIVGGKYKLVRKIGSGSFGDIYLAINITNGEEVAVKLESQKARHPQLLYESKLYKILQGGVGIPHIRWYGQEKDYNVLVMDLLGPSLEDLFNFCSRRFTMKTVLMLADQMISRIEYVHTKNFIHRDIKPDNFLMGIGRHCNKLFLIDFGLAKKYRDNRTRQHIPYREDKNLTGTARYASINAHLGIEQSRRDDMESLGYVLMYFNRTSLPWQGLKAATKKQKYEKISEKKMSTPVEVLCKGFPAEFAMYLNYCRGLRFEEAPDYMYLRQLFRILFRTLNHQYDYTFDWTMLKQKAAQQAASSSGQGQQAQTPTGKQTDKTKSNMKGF
# UniProt Q03431, sequence (whole entry, looked up): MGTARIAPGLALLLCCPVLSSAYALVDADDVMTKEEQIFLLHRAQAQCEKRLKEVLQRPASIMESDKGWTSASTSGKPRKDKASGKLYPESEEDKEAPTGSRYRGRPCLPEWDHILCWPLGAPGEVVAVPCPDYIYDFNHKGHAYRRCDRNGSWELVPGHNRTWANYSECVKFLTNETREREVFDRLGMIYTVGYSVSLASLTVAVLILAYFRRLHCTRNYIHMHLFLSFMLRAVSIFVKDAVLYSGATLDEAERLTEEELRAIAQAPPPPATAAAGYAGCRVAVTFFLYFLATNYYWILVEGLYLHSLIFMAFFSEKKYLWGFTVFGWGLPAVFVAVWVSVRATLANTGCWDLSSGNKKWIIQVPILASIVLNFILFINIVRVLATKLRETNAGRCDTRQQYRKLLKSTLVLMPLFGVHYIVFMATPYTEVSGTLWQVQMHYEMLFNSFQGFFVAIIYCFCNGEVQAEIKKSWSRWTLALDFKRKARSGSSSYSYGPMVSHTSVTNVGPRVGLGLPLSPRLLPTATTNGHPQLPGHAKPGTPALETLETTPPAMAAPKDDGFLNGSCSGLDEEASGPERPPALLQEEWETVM
# UniProt Q9NZC7, sequence (whole entry, unmodified, looked up): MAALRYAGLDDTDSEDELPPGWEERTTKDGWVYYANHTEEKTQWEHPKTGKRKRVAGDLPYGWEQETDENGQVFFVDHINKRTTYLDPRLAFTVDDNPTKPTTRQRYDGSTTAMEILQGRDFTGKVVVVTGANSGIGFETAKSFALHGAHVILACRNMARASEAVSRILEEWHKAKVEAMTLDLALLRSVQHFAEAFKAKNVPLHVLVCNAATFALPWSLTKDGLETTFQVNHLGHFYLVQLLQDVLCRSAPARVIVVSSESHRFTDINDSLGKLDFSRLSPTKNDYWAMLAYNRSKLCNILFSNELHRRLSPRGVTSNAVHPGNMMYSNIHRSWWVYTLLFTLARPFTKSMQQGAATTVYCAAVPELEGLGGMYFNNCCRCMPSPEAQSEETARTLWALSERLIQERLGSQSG
# UniProt Q6W5P4, sequence (whole entry, unmodified, looked up): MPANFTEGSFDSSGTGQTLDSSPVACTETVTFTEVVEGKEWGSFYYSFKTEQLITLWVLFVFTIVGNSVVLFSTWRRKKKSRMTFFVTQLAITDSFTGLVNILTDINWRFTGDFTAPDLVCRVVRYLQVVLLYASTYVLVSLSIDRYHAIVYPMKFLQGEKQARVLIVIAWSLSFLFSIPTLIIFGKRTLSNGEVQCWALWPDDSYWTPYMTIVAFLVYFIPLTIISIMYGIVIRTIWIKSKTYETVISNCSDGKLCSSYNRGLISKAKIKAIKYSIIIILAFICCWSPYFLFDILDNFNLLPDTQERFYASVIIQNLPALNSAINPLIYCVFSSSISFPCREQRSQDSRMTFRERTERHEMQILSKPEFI
# UniProt P37288, sequence (whole entry, looked up): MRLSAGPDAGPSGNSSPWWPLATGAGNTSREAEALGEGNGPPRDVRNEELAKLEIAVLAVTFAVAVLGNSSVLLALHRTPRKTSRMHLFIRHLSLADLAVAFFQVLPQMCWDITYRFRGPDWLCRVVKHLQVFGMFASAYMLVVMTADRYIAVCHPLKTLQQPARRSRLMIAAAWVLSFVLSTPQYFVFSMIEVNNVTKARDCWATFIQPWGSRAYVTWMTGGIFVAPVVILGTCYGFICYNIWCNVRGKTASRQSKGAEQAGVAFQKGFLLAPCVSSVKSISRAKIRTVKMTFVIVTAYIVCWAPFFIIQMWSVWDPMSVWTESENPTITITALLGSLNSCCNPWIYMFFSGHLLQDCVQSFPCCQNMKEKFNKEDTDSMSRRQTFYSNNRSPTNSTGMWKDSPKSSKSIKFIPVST
# UniProt P16050, sequence (whole entry, looked up): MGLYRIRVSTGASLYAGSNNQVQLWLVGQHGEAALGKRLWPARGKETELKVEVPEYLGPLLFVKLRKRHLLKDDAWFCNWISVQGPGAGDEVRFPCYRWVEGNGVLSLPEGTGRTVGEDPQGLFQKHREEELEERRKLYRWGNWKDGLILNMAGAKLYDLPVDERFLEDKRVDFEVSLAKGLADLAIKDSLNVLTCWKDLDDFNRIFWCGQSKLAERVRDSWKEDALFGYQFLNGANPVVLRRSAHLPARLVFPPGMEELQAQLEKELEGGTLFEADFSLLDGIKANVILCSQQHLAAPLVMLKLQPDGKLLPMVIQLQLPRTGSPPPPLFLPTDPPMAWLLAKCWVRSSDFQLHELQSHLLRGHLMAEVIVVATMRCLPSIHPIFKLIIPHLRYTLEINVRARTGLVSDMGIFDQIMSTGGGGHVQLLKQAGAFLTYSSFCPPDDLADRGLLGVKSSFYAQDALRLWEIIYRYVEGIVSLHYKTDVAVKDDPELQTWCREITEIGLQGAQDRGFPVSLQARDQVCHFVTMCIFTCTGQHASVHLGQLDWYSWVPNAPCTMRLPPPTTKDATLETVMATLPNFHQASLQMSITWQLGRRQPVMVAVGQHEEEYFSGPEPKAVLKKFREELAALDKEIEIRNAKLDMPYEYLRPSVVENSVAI
# UniProt P28907, sequence (whole entry, looked up): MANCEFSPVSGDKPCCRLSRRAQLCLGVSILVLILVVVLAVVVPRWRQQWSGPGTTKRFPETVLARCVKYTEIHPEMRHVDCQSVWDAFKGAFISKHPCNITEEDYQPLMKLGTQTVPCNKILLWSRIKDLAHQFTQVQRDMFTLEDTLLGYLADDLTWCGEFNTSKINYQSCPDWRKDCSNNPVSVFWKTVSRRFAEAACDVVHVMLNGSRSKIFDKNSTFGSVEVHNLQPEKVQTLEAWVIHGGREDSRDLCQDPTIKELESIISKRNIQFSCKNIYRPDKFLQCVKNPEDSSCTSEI
# UniProt P53341, sequence (whole entry, looked up): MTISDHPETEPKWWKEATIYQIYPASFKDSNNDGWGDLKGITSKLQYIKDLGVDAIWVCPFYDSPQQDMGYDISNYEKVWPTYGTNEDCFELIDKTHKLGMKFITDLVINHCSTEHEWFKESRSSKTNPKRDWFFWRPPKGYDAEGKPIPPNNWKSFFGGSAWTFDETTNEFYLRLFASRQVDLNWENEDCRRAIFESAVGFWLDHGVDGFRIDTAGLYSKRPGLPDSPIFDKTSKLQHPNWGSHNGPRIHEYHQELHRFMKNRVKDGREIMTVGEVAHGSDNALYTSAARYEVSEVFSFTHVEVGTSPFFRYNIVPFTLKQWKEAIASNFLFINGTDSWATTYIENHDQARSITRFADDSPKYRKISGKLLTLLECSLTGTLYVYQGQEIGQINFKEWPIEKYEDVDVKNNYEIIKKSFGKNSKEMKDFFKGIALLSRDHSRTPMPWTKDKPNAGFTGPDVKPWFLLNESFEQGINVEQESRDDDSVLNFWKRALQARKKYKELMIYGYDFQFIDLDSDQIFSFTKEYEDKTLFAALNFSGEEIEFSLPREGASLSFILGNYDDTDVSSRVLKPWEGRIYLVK
# UniProt O60656, sequence (whole entry, looked up): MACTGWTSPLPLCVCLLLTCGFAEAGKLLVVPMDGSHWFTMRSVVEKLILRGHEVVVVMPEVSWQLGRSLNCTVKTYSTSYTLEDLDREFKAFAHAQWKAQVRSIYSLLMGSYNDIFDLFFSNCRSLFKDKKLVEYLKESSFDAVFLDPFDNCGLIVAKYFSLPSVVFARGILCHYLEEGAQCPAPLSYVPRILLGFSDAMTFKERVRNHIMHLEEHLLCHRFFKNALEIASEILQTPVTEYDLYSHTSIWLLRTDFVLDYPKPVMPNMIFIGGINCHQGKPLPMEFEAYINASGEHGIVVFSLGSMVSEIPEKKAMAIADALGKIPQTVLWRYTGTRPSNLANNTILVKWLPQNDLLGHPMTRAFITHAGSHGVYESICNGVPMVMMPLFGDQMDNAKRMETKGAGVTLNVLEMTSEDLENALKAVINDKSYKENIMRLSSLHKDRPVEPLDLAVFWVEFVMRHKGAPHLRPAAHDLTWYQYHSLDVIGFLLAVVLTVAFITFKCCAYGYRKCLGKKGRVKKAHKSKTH
# UniProt Q96SW2, sequence (whole entry, looked up): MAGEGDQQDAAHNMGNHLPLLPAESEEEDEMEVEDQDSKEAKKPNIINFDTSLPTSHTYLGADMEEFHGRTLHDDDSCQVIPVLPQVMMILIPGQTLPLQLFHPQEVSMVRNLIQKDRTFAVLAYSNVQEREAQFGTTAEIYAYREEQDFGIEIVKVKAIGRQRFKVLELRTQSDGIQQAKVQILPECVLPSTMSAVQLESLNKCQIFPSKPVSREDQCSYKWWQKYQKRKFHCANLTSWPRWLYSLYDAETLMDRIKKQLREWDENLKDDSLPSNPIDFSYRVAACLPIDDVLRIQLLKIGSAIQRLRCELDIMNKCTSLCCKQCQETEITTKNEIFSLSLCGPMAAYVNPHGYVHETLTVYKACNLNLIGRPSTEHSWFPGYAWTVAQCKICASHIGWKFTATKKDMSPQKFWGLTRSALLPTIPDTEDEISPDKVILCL
Structure (SMILES),target,test,test system,setting,how to read,measurement,result
O=C1NC(=O)C(=Cc2ccc(-c3cccc(C(F)(F)F)c3)o2)S1,"CD38 (Homo sapiens, UniProt P28907)","cyclase activity, fluorometric",,"50 µM, added: NGD+ substrate",reference: untreated,remaining activity,12.9 ± 4.3%
CC(C)C[C@H](NC(=O)[C@@H](NC(=O)[C@@H](NC(=O)CN)[C@@H](C)O)C(C)C)C(=O)N1CCC[C@H]1C(=O)N1CCC[C@H]1C(=O)N1CCC[C@H]1C(=O)N1CCC[C@H]1C(=O)N[C@@H](Cc1ccc(O)cc1)C(=O)N[C@@H](CCCNC(=N)N)C(=O)N[C@@H](Cc1c[nH]cn1)C(=O)N[C@@H](CCCNC(=N)N)C(=O)N[C@@H](CC(N)=O)C(=O)O,"WW domain-containing oxidoreductase, WW1 domain (WWOX, Homo sapiens, UniProt Q9NZC7)","binding, isothermal titration calorimetry",,"pH 7.8, 20 °C, isolated WW1 domain",,TΔS,17 ± 1.25 kcal/mol
CC[C@H](C)[C@@H]1NC(=O)[C@H](Cc2ccc(O)cc2)NC(=O)[C@@H](N)CSSC[C@@H](C(=O)N2CCC[C@H]2C(=O)N[C@@H](CC(C)C)C(=O)NCC(N)=O)NC(=O)[C@H](CC(N)=O)NC(=O)[C@H](CCC(N)=O)NC1=O,"AVPR1A (Homo sapiens, UniProt P37288)",agonist,,concentration not given,,activation,93%
CC(C)[C@H](NC(=O)[C@@H]1CCCN1C(=O)[C@H](C)NC(=O)[C@H](CO)NC(=O)[C@H](C)NC(=O)[C@H](CC(N)=O)NC(=O)[C@H](CCC(=O)O)NC(=O)[C@@H](NC(=O)[C@H](CC(=O)O)NC(=O)[C@H](CCCCN)NC(=O)[C@H](C)NC(=O)[C@H](CCC(N)=O)NC(=O)[C@H](Cc1ccccc1)NC(=O)[C@H](C)NC(=O)[C@H](Cc1c[nH]c2ccccc12)NC(=O)[C@H](C)NC(=O)[C@@H](NC(=O)CN)C(C)C)C(C)C)C(=O)O,"PCY1 peptide cyclase, Saponaria vaccaria","substrate, isothermal titration calorimetry",,30 °C,,kcat/Km,560000 M⁻¹ s⁻¹
CC(C)=CCCC(C)=CCc1cc(-c2coc3cc(OC4OC(C(=O)O)C(O)C(O)C4O)ccc3c2=O)ccc1O (centres unmarked),"UGT1A9 (Homo sapiens, UniProt O60656)","glucuronidation of cholic acid, substrate",recombinant enzyme,substrate inhibition constant,,Ki,75.3 ± 6.26 µM
C=C1C(=O)O[C@@H]2[C@H]3C(CO)=CC(=O)C3=C(C)C[C@H](O)[C@@H]12,"MAL12 (Saccharomyces cerevisiae S288c, UniProt P53341)",fluorescence quenching,,298 K,,binding free energy,-5.15 kcal/mol
CN1CCN(CC(=O)N2N=C3/C(=C/c4ccccc4)CCCC3C2c2ccccc2)CC1 (mixture of isomers),"ALOX15 (Homo sapiens, UniProt P16050)","enzyme activity, activator",,"concentration not given, 10 µM activator, added: 50 µM docosahexaenoic acid",reference: without activator,change in lag phase,150 s
CC(=O)NCCN(CCC(=O)NCCN(CCC(=O)NCCN(CCC(=O)NCCC(N)=O)C(=O)[C@@H](N)CCCNC(=N)N)C(=O)[C@@H](N)Cc1ccccc1)C(=O)[C@@H](N)Cc1ccccc1,HIV-1 TAR RNA,,,25 °C,,binding free energy ΔG°,-9.13 ± 0.406 kcal/mol
N=C(N)NCCC[C@H](NC(=O)[C@H](Cc1ccccc1)NC(=O)[C@@H](N)CO)C(=O)N[C@@H](CC(N)=O)C(N)=O,"NPSR1 (Homo sapiens, UniProt Q6W5P4, N107I)","calcium mobilization, agonist",CHO-Gα16 cells,concentration not given,"reference: full-length NPS over compound, fold less potent",potency fold change,4 fold
CC[C@H](C)[C@H](NC(=O)[C@H](CO)NC(=O)[C@H](CCCCN)NC(=O)CNC(=O)[C@H](CCCCN)NC(=O)[C@H](CC(=O)O)NC(=O)[C@H](Cc1c[nH]cn1)NC(=O)[C@H](CC(C)C)NC(=O)[C@H](CC(C)C)NC(=O)[C@H](CCC(N)=O)NC(=O)[C@H](Cc1c[nH]cn1)NC(=O)[C@H](CCC(=O)O)NC(=O)[C@H](CO)NC(=O)[C@@H](NC(=O)[C@H](C)N)C(C)C)C(=O)N[C@@H](CCC(N)=O)C(=O)N[C@@H](CO)C(=O)N[C@@H](CCSC)C(=O)N[C@@H](CCC(=O)O)C(=O)N[C@@H](CCCNC(=N)N)C(=O)N[C@H](C(=O)N[C@@H](CCC(=O)O)C(=O)N[C@@H](Cc1c[nH]c2ccccc12)C(=O)N[C@@H](CC(C)C)C(=O)N[C@@H](CCCNC(=N)N)C(=O)N[C@@H](CCCCN)C(=O)N[C@@H](CCCCN)C(=O)N[C@@H](CC(C)C)C(=O)N[C@@H](CCC(N)=O)C(=O)N[C@@H](CC(=O)O)C(=O)N[C@H](C(=O)N[C@@H](Cc1c[nH]cn1)C(=O)N[C@@H](CC(N)=O)C(=O)N[C@@H](Cc1ccccc1)C(=O)N[C@@H](CCCCNC(=O)c1ccc2c(c1)C1(OC2=O)c2ccc(N(C)C)cc2Oc2cc(N(C)C)ccc21)C(N)=O)C(C)C)C(C)C,"PTH1R (Homo sapiens, UniProt Q03431)","cAMP formation, agonist, GloSensor",HEK293 GP2.3,,reference: (1-34),Emax,105 ± 1%
O=C1CC[C@H](N2Cc3cc(-c4cnn5ccc(NC6CCCCC6)nc45)ccc3C2=O)C(=O)N1,"Cereblon/Casein kinase I alpha (CSNK1A1/CRBN, Homo sapiens, UniProt P48729+Q96SW2)","protein level, degrader, luciferase",MOLT-4,,,Dmax,9%

# A few entries again:
Structure (SMILES),target,test,test system,setting,how to read,measurement,result
O=C1CC[C@H](N2Cc3cc(-c4cnn5ccc(NC6CCCCC6)nc45)ccc3C2=O)C(=O)N1,"Cereblon/Casein kinase I alpha (CSNK1A1/CRBN, Homo sapiens, UniProt P48729+Q96SW2)","protein level, degrader, luciferase",MOLT-4,,,Dmax,9%
